# Results collected from several papers.
# Compare with care: the assays were run in different laboratories. Several values in a cell are separate wells, animals, samples, runs or records. ± gives the spread as reported.
# ACHE: Acetylcholinesterase (ACHE, Homo sapiens, UniProt P22303)
# UniProt P22303, sequence (whole entry, looked up): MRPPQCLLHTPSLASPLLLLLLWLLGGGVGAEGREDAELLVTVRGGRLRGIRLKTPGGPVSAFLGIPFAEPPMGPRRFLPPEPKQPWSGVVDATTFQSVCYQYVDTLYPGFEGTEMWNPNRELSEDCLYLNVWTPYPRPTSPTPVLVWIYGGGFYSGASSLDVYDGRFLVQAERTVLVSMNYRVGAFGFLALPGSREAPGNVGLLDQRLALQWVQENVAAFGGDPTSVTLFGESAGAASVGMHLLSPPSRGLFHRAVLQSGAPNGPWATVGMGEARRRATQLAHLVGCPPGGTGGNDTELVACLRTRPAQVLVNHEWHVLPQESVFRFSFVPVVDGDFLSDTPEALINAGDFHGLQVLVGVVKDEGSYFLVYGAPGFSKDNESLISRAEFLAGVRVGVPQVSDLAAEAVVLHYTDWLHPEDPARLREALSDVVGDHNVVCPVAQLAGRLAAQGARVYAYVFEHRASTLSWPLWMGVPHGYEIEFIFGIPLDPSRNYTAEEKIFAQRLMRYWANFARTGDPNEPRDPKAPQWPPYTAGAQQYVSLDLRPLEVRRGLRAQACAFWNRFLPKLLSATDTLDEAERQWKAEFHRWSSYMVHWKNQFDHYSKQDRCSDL
# Mapk1: Mitogen-activated protein kinase 1 (Mapk1, Rattus norvegicus, UniProt P63086)
# UniProt P63086, sequence (whole entry, looked up): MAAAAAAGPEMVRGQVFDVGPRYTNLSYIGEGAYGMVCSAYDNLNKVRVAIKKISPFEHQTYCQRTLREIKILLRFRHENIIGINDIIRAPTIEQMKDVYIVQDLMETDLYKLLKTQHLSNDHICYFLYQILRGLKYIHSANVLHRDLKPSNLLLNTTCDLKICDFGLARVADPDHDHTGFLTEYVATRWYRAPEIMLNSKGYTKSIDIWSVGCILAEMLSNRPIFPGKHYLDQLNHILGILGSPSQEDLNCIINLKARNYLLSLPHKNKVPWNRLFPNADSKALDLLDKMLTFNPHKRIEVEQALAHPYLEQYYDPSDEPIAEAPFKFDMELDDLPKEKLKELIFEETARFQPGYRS
# CA1: Carbonic anhydrase 1 (CA1, Homo sapiens, UniProt P00915)
# UniProt P00915, sequence (whole entry, looked up): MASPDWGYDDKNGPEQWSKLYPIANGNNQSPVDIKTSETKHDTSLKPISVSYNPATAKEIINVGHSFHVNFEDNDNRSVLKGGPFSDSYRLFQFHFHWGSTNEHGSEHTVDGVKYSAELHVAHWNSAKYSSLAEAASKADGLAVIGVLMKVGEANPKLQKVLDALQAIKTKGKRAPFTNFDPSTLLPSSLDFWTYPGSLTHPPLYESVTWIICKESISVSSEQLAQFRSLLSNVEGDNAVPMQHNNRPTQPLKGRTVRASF
# Transcriptional regulator PlcR: Transcriptional regulator PlcR (Bacillus thuringiensis, UniProt A0ACM8Q0N2)
# CYP1A2: Cytochrome P450 1A2 (CYP1A2, Homo sapiens, UniProt P05177)
# UniProt P05177, sequence (whole entry, looked up): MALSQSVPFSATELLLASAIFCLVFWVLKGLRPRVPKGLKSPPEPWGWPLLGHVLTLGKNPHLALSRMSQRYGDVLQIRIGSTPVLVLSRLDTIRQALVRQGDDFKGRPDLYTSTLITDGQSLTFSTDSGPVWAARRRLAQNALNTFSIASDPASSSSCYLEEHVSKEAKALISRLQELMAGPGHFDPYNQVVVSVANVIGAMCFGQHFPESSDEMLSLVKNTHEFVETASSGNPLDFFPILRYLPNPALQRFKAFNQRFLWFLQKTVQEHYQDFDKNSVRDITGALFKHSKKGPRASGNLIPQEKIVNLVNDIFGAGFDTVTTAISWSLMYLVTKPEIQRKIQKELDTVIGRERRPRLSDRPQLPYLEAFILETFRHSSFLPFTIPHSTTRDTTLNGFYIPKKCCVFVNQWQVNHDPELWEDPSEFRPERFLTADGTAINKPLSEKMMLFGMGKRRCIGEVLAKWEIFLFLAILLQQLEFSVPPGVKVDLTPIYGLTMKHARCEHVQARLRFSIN
# CAPN1: Calpain-1 catalytic subunit (CAPN1, Homo sapiens, UniProt P07384)
# UniProt P07384, sequence (whole entry, looked up): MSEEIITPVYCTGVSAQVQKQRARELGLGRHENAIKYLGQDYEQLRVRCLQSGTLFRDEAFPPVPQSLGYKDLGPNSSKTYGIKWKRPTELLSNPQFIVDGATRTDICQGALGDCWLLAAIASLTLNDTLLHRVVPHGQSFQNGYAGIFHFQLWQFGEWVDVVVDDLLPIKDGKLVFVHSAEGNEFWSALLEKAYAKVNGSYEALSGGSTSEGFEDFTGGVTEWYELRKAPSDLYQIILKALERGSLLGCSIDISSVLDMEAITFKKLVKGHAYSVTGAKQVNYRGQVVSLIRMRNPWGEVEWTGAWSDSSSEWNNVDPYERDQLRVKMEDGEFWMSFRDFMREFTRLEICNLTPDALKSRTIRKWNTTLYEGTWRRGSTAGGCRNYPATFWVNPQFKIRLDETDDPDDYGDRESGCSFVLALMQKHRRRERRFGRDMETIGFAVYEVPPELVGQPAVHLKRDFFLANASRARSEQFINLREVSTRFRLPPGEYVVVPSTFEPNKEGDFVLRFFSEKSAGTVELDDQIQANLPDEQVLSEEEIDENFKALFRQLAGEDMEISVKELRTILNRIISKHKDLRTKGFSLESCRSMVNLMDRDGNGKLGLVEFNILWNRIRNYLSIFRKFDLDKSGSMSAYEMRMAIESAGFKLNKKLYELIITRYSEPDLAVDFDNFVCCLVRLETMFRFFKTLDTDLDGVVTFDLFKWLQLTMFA
# UniProt Q9Y6F1, sequence (whole entry, looked up): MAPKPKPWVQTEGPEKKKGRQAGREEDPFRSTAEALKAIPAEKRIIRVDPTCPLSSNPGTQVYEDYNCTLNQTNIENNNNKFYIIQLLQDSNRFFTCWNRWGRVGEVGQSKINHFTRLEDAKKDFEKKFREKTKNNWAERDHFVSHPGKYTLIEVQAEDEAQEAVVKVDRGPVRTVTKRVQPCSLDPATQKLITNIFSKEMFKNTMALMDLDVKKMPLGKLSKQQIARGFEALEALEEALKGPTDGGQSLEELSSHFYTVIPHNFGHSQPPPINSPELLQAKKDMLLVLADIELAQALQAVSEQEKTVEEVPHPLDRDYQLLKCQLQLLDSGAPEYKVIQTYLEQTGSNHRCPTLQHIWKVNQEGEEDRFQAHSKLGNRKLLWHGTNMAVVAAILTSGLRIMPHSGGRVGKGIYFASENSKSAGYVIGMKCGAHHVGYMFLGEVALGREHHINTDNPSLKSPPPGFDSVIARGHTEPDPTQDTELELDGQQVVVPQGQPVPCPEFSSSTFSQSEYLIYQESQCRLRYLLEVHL
# UniProt Q9HB89, sequence (whole entry, looked up): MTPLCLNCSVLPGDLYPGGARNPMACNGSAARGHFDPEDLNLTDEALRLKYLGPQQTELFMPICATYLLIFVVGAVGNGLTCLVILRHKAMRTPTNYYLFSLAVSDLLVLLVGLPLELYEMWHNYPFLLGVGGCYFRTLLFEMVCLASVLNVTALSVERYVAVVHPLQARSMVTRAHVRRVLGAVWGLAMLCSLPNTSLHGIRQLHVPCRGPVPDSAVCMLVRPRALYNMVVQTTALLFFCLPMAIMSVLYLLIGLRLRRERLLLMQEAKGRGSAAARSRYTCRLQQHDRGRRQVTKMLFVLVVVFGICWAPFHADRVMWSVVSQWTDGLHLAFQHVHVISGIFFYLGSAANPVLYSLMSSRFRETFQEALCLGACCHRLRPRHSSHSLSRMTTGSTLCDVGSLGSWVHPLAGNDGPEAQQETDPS
# UniProt P06276, sequence (whole entry, looked up): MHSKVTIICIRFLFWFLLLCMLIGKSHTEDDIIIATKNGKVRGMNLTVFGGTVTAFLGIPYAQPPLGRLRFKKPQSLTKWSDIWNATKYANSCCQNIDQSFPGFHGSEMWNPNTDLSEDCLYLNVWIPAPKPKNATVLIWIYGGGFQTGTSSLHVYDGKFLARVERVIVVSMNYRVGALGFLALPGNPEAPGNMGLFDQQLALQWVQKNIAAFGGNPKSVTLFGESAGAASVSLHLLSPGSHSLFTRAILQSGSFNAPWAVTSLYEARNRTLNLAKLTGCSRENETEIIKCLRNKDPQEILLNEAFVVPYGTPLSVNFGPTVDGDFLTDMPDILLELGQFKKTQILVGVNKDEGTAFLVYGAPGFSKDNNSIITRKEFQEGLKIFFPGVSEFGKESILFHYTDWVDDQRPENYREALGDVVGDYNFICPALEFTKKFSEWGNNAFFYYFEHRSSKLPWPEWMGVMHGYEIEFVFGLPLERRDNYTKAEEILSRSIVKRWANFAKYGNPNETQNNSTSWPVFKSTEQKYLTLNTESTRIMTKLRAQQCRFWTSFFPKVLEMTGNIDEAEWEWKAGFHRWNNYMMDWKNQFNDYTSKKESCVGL
# UniProt P51787, sequence (whole entry, looked up): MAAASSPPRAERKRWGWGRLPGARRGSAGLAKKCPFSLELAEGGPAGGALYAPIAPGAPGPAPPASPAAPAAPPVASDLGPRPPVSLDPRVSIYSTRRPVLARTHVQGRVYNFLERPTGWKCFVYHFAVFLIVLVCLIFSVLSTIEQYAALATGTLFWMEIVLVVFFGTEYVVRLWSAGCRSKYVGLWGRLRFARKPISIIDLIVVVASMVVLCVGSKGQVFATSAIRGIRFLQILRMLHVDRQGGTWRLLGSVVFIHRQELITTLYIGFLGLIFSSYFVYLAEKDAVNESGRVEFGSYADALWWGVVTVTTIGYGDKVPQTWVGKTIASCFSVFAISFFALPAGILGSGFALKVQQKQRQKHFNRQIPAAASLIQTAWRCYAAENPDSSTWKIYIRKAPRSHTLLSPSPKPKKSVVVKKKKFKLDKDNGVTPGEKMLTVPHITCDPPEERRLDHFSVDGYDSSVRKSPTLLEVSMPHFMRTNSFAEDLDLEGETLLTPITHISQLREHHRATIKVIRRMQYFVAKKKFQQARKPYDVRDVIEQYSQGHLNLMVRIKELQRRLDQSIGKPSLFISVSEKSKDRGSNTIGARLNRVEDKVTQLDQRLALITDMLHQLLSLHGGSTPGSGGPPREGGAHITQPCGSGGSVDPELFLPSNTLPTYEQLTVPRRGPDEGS
Structure (SMILES),target,assay,test system,setting,IC50
COC1c2cc(C(C)C)c(O)c(O)c2C23CCCC(C)(C)C2C1OC3=O (stereo not shown),ACHE,"enzyme activity, inhibitor",,,4.81 nM
CC(C)C[C@H](NC(=O)[C@H](CCCCN)NC(=O)[C@H](CC(C)C)NC(=O)[C@H](CCCCN)NC(=O)[C@H](CCCNC(=N)N)NC(=O)[C@@H]1CCCN1C(=O)[C@H](CCCNC(=N)N)NC(=O)CNC(=O)[C@H](CCCNC(=N)N)NC(=O)[C@H](CCCCN)NC(=O)CNC(=O)[C@@H]1CCCN1C(=O)[C@H](C)NC(=O)[C@@H](N)Cc1ccc(O)cc1)C(=O)N[C@@H](CS)C(=O)N[C@@H](CCCCN)C(=O)O,Mapk1,"enzyme activity, inhibitor, fluorescence",,pH 7.4,6110 nM
CCCCCCCCCCCCCCCCCC(=O)NC[C@H]1CC[C@H](C(=O)N[C@@H](CCC(=O)NCCCOCCOCCOCCCNC(=O)COCC(=O)N[C@@H](Cc2ccc(O)cc2)C(=O)NC(C)(Cc2ccccc2)C(=O)N[C@@H](CC(C)C)C(=O)N[C@@H](CCCC)C(=O)N[C@@H](CCCNC(=N)N)C(=O)N2CCC[C@H]2C(=O)N[C@@H](CCCNC(=N)NC)C(=O)N[C@@H](CC(N)=O)C(N)=O)C(=O)O)CC1 (stereo partly shown),"Neuromedin-U receptor 1 (NMUR1, Homo sapiens, UniProt Q9HB89)","IP-1 accumulation, antagonist",,"30 min preincubation, with: 0.4 nM human NMU-25",28 nM
CC[C@H](C)[C@H](NC(=O)[C@H](Cc1ccc(O)cc1)NC(=O)[C@H](CC(C)C)NC(=O)[C@H](CCCNC(=N)N)NC(=O)[C@H](CCCCN)NC(=O)[C@@H](NC(=O)[C@H](CCCCN)NC(=O)[C@H](CCCCN)NC(=O)[C@H](CCCCN)NC(=O)[C@@H](NC(=O)[C@H](CCC(N)=O)NC(=O)[C@H](Cc1ccccc1)NC(=O)[C@H](C)NC(=O)[C@@H](N)Cc1ccc(O)cc1)[C@@H](C)CC)[C@@H](C)O)C(=O)N[C@@H](CC(N)=O)C(=O)N[C@@H](CCCCN)C(=O)O,Mapk1,"enzyme activity, inhibitor, fluorescence",,pH 7.4,84400 nM
Cc1[nH]c(C)c(S(=O)(=O)NC(C)(C)C)c1C(=O)N1CCCC1,"D(3) dopamine receptor (DRD3, Homo sapiens, UniProt P35462)","Go activation, antagonist, BRET",,with: dopamine,> 100000 nM
CC[C@H](C)[C@H](NC(=O)[C@H](C)NC(=O)[C@@H](N)Cc1ccc(O)cc1)C(=O)N[C@@H](CCCNC(=N)N)C(=O)N[C@@H](C)C(=O)N[C@@H](CCCNC(=N)N)C(=O)N[C@@H](CCCNC(=N)N)C(=O)NCC(=O)N[C@@H](CC(C)C)C(=O)N[C@@H](C)C(=O)N[C@@H](CCCNC(=N)N)C(=O)N[C@@H](CC(C)C)C(=O)N[C@@H](C)C(=O)N[C@H](C(=O)N[C@@H](CO)C(=O)N[C@@H](CC(=O)O)C(=O)O)C(C)C,Mapk1,"enzyme activity, inhibitor, fluorescence",,pH 7.4,10600 nM
O=S(=O)(N/N=C/c1ccc(OS(=O)(=O)c2ccc(Br)cc2)cc1)c1cc(Cl)ccc1Cl,CA1,"enzyme activity, inhibitor, absorbance",,,237 nM
O=C(c1cc(Cc2n[nH]c(=O)c3ccccc23)ccc1F)N1CC(CNC2CC2)C1,"Protein mono-ADP-ribosyltransferase PARP3 (PARP3, Homo sapiens, UniProt Q9Y6F1)","enzyme activity, inhibitor",,,780 nM and ~780 nM
CSCC[C@H](N)C(=O)N[C@@H](CC(=O)O)C(=O)N[C@@H](CC(C)C)C(=O)N1CCC[C@H]1C(=O)N[C@@H](Cc1ccccc1)C(=O)N[C@@H](CCC(=O)O)C(=O)N[C@@H](C)C(N)=O,Transcriptional regulator PlcR,"reporter gene, inhibitor, lacZ reporter",407 Cry−,,482 ± 31 nM
CC(C)C[C@H](NC(=O)[C@H](CCCCN)NC(=O)[C@H](CO)NC(=O)[C@H](CCCNC(=N)N)NC(=O)[C@H](C)NC(=O)[C@@H](N)Cc1ccc(O)cc1)C(=O)N[C@@H](CCCNC(=N)N)C(=O)N[C@@H](CCCCN)C(=O)N1CCC[C@H]1C(=O)N[C@@H](CCCCN)C(=O)N1CCC[C@H]1C(=O)N[C@H](C(=O)N1CCC[C@H]1C(=O)N[C@@H](CC(C)C)C(=O)N[C@@H](CCCNC(=N)N)C(=O)N[C@@H](CCCCN)C(=O)O)C(C)C,Mapk1,"enzyme activity, inhibitor, fluorescence",,pH 7.4,28000 nM
CCc1nnc(-c2c(OC)cc(-c3cnc4cc(-c5cnn(C)c5)ccn34)cc2OC)o1,CYP1A2,"enzyme activity, inhibitor",,,> 10000 nM
OC[C@@H]1[C@@H](O)[C@H](O)[C@@H](O)[C@@H]2N[C@H]12,"bglA (Thermotoga maritima, UniProt Q08638)","enzyme activity, inhibitor",,"pH 6.8, with preincubation",130 nM
O=C(CN1C(=O)C2(CCN(C(=O)c3ccc4[nH]ncc4n3)CC2)c2c(Cl)cccc21)NCC(F)(F)F,"Epithelial discoidin domain-containing receptor 1 (DDR1, Homo sapiens, UniProt Q08345)",ligand displacement,,,25 nM
CC(C)C[C@H](NC(=O)[C@H](CC(=O)O)NC(=O)[C@H](CCCNC(=N)N)NC(=O)[C@@H]1CCCN1C(=O)[C@H](CCCCN)NC(=O)[C@H](CCCNC(=N)N)NC(=O)CNC(=O)[C@H](CCCCN)NC(=O)[C@H](C)NC(=O)[C@@H](N)Cc1ccc(O)cc1)C(=O)N[C@@H](CCC(=O)O)C(=O)N[C@@H](CC(C)C)C(=O)N1CCC[C@H]1C(=O)N[C@@H](CC(C)C)C(=O)N[C@@H](CO)C(=O)N1CCC[C@H]1C(=O)O,Mapk1,"enzyme activity, inhibitor, fluorescence",,pH 7.4,52900 nM
CCN(N=Cc1cnc2ccc(Br)cn12)S(=O)(=O)c1cc([N+](=O)[O-])ccc1C,"Phosphatidylinositol 4,5-bisphosphate 3-kinase catalytic subunit beta isoform (PIK3CB, Homo sapiens, UniProt P42338)","enzyme activity, inhibitor",,,1110 nM
CCC(C(=O)Nc1ccccc1C)n1c(SCc2ccc(F)cc2)nc2ncccc21 (stereo not shown),CAPN1,enzyme activity,,,> 100000 nM
CC(C)C[C@H](NC(=O)[C@H]1O[C@@H]1C(=O)O)C(=O)NCCCCN=C(N)N,CAPN1,"enzyme activity, inhibitor",,,51.6 nM
C[C@H](Oc1ccc(C(=O)c2ccc(F)cc2)cc1)C(=O)N1CCc2ccc(C(F)(F)F)cc21,"Dihydroorotate dehydrogenase (quinone), mitochondrial (PFF0160c, Plasmodium falciparum, UniProt Q08210)","enzyme activity, inhibitor, absorbance",,,855 nM
O=C(O)CCn1c(=O)oc2cc(Cl)c(Cl)cc21,ACHE,inhibitor,,,> 100000 nM
O=C(CCc1ccc(Br)cc1)N[C@H]1CCOC1=O,"Transcriptional activator protein LasR (lasR, Pseudomonas aeruginosa, UniProt P25084)","reporter gene, antagonist","Escherichia coli, JLD271 with LasR plasmid",with: OdDHL 1 nM,210 nM
O=S(=O)(F)c1cccc(S(=O)(=O)Nc2ccc(C3CC3)c(F)c2)c1,"GTPase KRas, with RAF (KRAS, Homo sapiens, UniProt P01116)","RAF-KRAS interaction, inhibitor, NanoBRET",HEK293T,24 h,47000 ± 8000 nM
C=C1NC(=O)[C@H](CCSC)NC(=O)[C@H](Cc2ccc(O)cc2)NC(=O)[C@H](Cc2c[nH]cn2)NC(=O)CNC(=O)[C@H](CCC(N)=O)NC(=O)[C@H](CC(N)=O)NC(=O)[C@H](Cc2c[nH]cn2)NC(=O)[C@H]([C@@H](C)O)NC(=O)[C@H](CCC(N)=O)NC(=O)[C@H](CO)NC(=O)[C@H](Cc2c[nH]c3ccccc23)NC(=O)[C@H](Cc2c[nH]c3ccccc23)NC(=O)c2ccc(-c3nc(C(=O)OC)cs3)nc2-c2csc1n2,"TRAF2 and NCK-interacting protein kinase (TNIK, Homo sapiens, UniProt Q9UKE5)","enzyme activity, inhibitor, ADP detection",,,2700 nM
C[C@@H]1COCCN1c1nc(NCc2cccnc2C(F)(F)F)c2cccnc2n1,"Potassium voltage-gated channel subfamily KQT member 1, with KCNE1 (KCNQ1, Homo sapiens, UniProt P51787)",inhibitor,,,> 33000 nM
CC[C@H](C)[C@H](NC(=O)[C@@H]1CCCN1C(=O)[C@@H]1CCCN1C(=O)[C@@H]1CCCN1C(=O)[C@@H]1CCCN1C(=O)[C@@H](NC(=O)[C@H](CCCNC(=N)N)NC(=O)[C@H](CO)NC(=O)[C@H](CCCCN)NC(=O)[C@H](CCCCN)NC(=O)[C@H](C)NC(=O)[C@@H](N)Cc1ccc(O)cc1)C(C)C)C(=O)N[C@@H](CC(C)C)C(=O)N[C@@H](CC(C)C)C(=O)N[C@@H](CO)C(=O)N[C@@H](CCCNC(=N)N)C(=O)O,Mapk1,"enzyme activity, inhibitor, fluorescence",,pH 7.4,54300 nM
CC(C)C[C@H](NC(=O)[C@H](CC(=O)O)NC(=O)[C@H](C)N)C(=O)N1CCC[C@H]1C(=O)N[C@@H](Cc1ccccc1)C(=O)N[C@@H](C)C(=O)N[C@@H](Cc1ccccc1)C(N)=O,Transcriptional regulator PlcR,"reporter gene, inhibitor, lacZ reporter",407 Cry−,,1700 ± 111 nM
Cc1nc2ccc(-c3ccc(OC(F)(F)F)cc3)cc2c(O)c1C#N,"Dihydroorotate dehydrogenase (quinone), mitochondrial (PFF0160c, Plasmodium falciparum, UniProt Q08210, E182D)","enzyme activity, inhibitor, absorbance",,,1790 nM
COCCCC1CCCCN1C(=O)Oc1ccc([N+](=O)[O-])cc1 (stereo not shown),"Cholinesterase (BCHE, Homo sapiens, UniProt P06276)","enzyme activity, inhibitor, Ellman",,,> 100000 nM
Cc1ccc(N2CC3CC(C2)N3C)cc1C(=O)NC1(c2ccc3c4c(cccc24)C(=O)N3C)CC1,CYP1A2,"enzyme activity, inhibitor",,,> 50000 nM
COc1ccc(S(=O)(=O)Oc2ccc(/C=N/NS(=O)(=O)c3ccc(Cl)cc3)cc2)cc1,CA1,"enzyme activity, inhibitor, absorbance",,,170 nM
CC[C@H](C)[C@H](NC(=O)[C@H](C)NC(=O)[C@H](CC(C)C)NC(=O)[C@H](CCCCN)NC(=O)[C@H](CCCNC(=N)N)NC(=O)[C@H](CCCCN)NC(=O)[C@H](CCCCN)NC(=O)[C@@H](NC(=O)[C@H](CCCCN)NC(=O)[C@H](CC(N)=O)NC(=O)[C@H](CCCCN)NC(=O)[C@@H](NC(=O)[C@H](C)NC(=O)[C@@H](N)Cc1ccc(O)cc1)[C@@H](C)O)C(C)C)C(=O)N[C@H](C(=O)N[C@@H](CCCNC(=N)N)C(=O)O)[C@@H](C)CC,Mapk1,"enzyme activity, inhibitor, fluorescence",,pH 7.4,59900 nM
CC12CCC3C4CCC(C#N)CC4CCC3C1CCC2O (stereo not shown),"Cannabinoid receptor 1 (CNR1, Homo sapiens, UniProt P21554)","cAMP, antagonist",,,9550 nM

# For quick reference, copied from above:
Structure (SMILES),target,assay,test system,setting,IC50
CCCCCCCCCCCCCCCCCC(=O)NC[C@H]1CC[C@H](C(=O)N[C@@H](CCC(=O)NCCCOCCOCCOCCCNC(=O)COCC(=O)N[C@@H](Cc2ccc(O)cc2)C(=O)NC(C)(Cc2ccccc2)C(=O)N[C@@H](CC(C)C)C(=O)N[C@@H](CCCC)C(=O)N[C@@H](CCCNC(=N)N)C(=O)N2CCC[C@H]2C(=O)N[C@@H](CCCNC(=N)NC)C(=O)N[C@@H](CC(N)=O)C(N)=O)C(=O)O)CC1 (stereo partly shown),"Neuromedin-U receptor 1 (NMUR1, Homo sapiens, UniProt Q9HB89)","IP-1 accumulation, antagonist",,"30 min preincubation, with: 0.4 nM human NMU-25",28 nM
CC[C@H](C)[C@H](NC(=O)[C@H](Cc1ccc(O)cc1)NC(=O)[C@H](CC(C)C)NC(=O)[C@H](CCCNC(=N)N)NC(=O)[C@H](CCCCN)NC(=O)[C@@H](NC(=O)[C@H](CCCCN)NC(=O)[C@H](CCCCN)NC(=O)[C@H](CCCCN)NC(=O)[C@@H](NC(=O)[C@H](CCC(N)=O)NC(=O)[C@H](Cc1ccccc1)NC(=O)[C@H](C)NC(=O)[C@@H](N)Cc1ccc(O)cc1)[C@@H](C)CC)[C@@H](C)O)C(=O)N[C@@H](CC(N)=O)C(=O)N[C@@H](CCCCN)C(=O)O,Mapk1,"enzyme activity, inhibitor, fluorescence",,pH 7.4,84400 nM
Cc1[nH]c(C)c(S(=O)(=O)NC(C)(C)C)c1C(=O)N1CCCC1,"D(3) dopamine receptor (DRD3, Homo sapiens, UniProt P35462)","Go activation, antagonist, BRET",,with: dopamine,> 100000 nM
CC[C@H](C)[C@H](NC(=O)[C@H](C)NC(=O)[C@@H](N)Cc1ccc(O)cc1)C(=O)N[C@@H](CCCNC(=N)N)C(=O)N[C@@H](C)C(=O)N[C@@H](CCCNC(=N)N)C(=O)N[C@@H](CCCNC(=N)N)C(=O)NCC(=O)N[C@@H](CC(C)C)C(=O)N[C@@H](C)C(=O)N[C@@H](CCCNC(=N)N)C(=O)N[C@@H](CC(C)C)C(=O)N[C@@H](C)C(=O)N[C@H](C(=O)N[C@@H](CO)C(=O)N[C@@H](CC(=O)O)C(=O)O)C(C)C,Mapk1,"enzyme activity, inhibitor, fluorescence",,pH 7.4,10600 nM
